Assay results collected from several papers.
Every numbered part comes from another study and shows a few of its results, in no order.

Series 1
Target: Fragile X messenger ribonucleoprotein 1, C-terminal low-complexity region (Fmr1, Mus musculus, UniProt P35922)
Technique: RNA Bind-n-Seq
Molecule type: RNA
Medium: in vitro
Concentration: 200 nM
Notes: whole 134-nt RNA, ends assumed
Together with: 150 mM KCl
Reference: input library
Direction: higher = stronger binding
Shared flanks, not repeated: GGGAGUUCUACAGUCCGACGAUC … UGGAAUUCUCGGGUGUCAAGG
Sequence | log2 enrichment
GCAGGAAGUAAAAACAAAUGGAAAUGCUUCGGAUAGUGGCAGGGGUGGGGGAUGCUAAGGAAAGGGUGGGAUGGGAGUGGGUAAAGAGUU | 0.0368
GUCCUGUGCUACACAUCGUAUGUACCGAAUCAAAUUUUUAAACCCCCCCAAACCCAAAAAAGUAUUAUGUUACGCCGUUCGGAUCUGCAC | -0.0981
CUGUGCUACACAUCGUAUGUACCGAAUCGGCCCCCCCGGGGCCCCCCCGGGGCCCCCCCGGGAAAGUAUUAUGUUACGCCGUUCGGAUCU | -1.69
GUCCUGUGCUACACAUCGUAUGUACCGAAUCGGCCCCCGGGGCCCCCGGGCCCCCGGGAAAGUAUUAUGUUACGCCGUUCGGAUCUGCAC | -0.276
CUCAAGUCCUGUGCUACACAUCGUAUGUACCGAAUCGGGCCGGGCCGGGCCGGAAAGUAUUAUGUUACGCCGUUCGGAUCUGCACUUCCA | 0.0286
GCUGGAAGUAAAAACAAAUGGAAAUGCUUCGGAUAGUGGCAGGGGUGGGGGUUGCUAAGGAAAGGGUGGGAUGGGAGUGGGUAAAGAGUU | 0.21
GCAGGAAGUAAAAACAAAUGGACAUGCUUCGGAUAGUGGCAGGGGUGGGGGUUGCUAAGGAAAGGGUGGGAUGGGAGUGGGUAAAGAGUU | 0.158
CACAGACAACACGCACCCACACAGACACAGAGGGAAGGGGUUGGGAUGGGGACAGGGUGCACAGCAGCGCGGGGUAGGACCCCAGCCCCU | 1.3
UCCUGUGCUACACAUCGUAUGUACCGAAUCAAACCCAAAUUUUUUUAAAUUUUUUUAAAAAAGUAUUAUGUUACGCCGUUCGGAUCUGCA | 0.385
AAGUCCUGUGCUACACAUCGUAUGUACCGAAUCGGGUGGGUUUUUUUGGGUUUGGGAAAGUAUUAUGUUACGCCGUUCGGAUCUGCACUU | 0.687
CCUGUGCUACACAUCGUAUGUACCGAAUCGGGGUUUGGGGUUUUUGGGGAAAAAAAGGGGAAAGUAUUAUGUUACGCCGUUCGGAUCUGC | 0.427
GCAGGAAGUAAAAACAAAUGGAAAUGCUUCGGAUAAAGGCAGGGGUGGGGGUUGCUAAGGAAAGGGUGGGAUGGGAGUGGGUAAAGAGUU | 0.443
CAAGUCCUGUGCUACACAUCGUAUGUACCGAAUCGGUUUUUGGAGGUUUUUUUGGAAAGUAUUAUGUUACGCCGUUCGGAUCUGCACUUC | -0.626
UGGGAGGUGGAUUUUGUUUAUUUUUUCAGCUCAUUUCCAGGGGUGGGAAUUUUUUUUUAAUAUGUGUCAUGAAUAAAGUUGUUUUUGAAA | 0.127

Series 2
Target: Histone acetyltransferase KAT6A, winged helix 1, GST fusion (KAT6A, Homo sapiens, UniProt Q92794, residues 1-85)
Technique: protein binding microarray
Molecule type: double-stranded DNA, one strand shown
Medium: in vitro
Concentration: not given
Notes: 8-mer, flanks averaged, mean of 2 arrays, mostly near background
Reference: not given
Direction: higher = stronger binding
Construct (chain): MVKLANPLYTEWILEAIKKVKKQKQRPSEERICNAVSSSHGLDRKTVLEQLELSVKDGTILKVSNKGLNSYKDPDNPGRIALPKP
Sequence | E-score
CAGGCTTC | 0.0627
GACCTCTA | -0.0872
GCCTCGGA | 0.167
ACCATTGC | 0.0212
CGTTGATA | 0.0727
ATGAGAGG | -0.279
CTGCTTGC | -0.016
ACATAGGT | -0.195
GAATCAAC | -0.0491
CACTGCAG | -0.184
CAGCTACA | -0.0675
ACACTGCT | -0.151
GAATTTCC | -0.115
GGCTTAAC | -0.0343
CCAGGGAG | -0.269
AGGCTCCC | -0.0221
CCAAAAGC | 0.0529
AGCTTGCC | 0.0767
CCGCTAAG | 0.354
CAGCGGCG | 0.411
CAGGGTGA | -0.191
CGATCCTA | 0.00531
GAGGCTGC | -0.161
CAGGCCAG | -0.0818

Series 3
Target: Sal-like protein 4, full length isoform A (SALL4, Homo sapiens, UniProt Q9UJQ4, residues 1-1053)
Sequence of UniProt Q9UJQ4 (whole entry, looked up): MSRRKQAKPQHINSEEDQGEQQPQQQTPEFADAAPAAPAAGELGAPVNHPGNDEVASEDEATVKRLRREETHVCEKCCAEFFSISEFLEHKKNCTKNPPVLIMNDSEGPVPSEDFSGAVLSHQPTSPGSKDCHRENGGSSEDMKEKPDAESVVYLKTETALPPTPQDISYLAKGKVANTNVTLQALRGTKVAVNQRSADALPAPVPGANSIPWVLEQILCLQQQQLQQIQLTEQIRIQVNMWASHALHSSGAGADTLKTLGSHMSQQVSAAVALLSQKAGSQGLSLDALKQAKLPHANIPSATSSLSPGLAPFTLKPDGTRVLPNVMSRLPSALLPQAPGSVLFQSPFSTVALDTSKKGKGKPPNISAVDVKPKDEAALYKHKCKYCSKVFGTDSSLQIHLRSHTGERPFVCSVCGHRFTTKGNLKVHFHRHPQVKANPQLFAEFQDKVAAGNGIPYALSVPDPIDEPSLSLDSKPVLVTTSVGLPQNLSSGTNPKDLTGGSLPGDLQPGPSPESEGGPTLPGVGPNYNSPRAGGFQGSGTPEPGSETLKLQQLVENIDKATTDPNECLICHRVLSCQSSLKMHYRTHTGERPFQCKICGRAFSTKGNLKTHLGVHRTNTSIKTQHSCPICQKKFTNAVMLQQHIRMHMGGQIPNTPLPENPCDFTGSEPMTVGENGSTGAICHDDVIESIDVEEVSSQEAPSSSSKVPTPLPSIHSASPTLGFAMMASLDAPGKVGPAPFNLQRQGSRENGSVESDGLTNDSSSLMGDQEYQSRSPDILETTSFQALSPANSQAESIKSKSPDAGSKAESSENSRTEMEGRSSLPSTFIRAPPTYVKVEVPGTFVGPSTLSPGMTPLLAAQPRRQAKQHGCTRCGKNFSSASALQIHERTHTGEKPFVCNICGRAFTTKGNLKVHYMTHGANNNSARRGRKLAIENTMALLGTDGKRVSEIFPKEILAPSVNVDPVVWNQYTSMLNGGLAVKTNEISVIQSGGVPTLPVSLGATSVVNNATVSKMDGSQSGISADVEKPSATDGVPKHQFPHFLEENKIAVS
Technique: universal PBM
Molecule type: double-stranded DNA, one strand shown
Medium: in vitro
Concentration: 600 nM
Notes: 8-mer, flanks averaged, mean of replicates
Direction: higher = stronger binding
Sequence | E-score
AGAAGGTA | 0.17
GGTGACTA | -0.0437
ACTATTGC | 0.246
AAGAGCAG | -0.0534
CGACTCTC | -0.151
GCTGGGTA | -0.207
ATCAAGCA | 0.127
TAGTTACA | 0.11
GAGAATTA | 0.264
ACTCTTGC | -0.0184
ACTCGGAA | -0.0433
ACAGCTTC | 0.0458
AATAATCT | 0.403
GGTCGTTA | -0.0937
AGCCACGC | -0.103
CCGTAGCG | -0.284

Series 4
Target: Centromere-binding protein 1, full length, N-terminal tag (CBF1, Saccharomyces cerevisiae, UniProt P17106, residues 1-351)
Sequence of UniProt P17106 (whole entry, looked up): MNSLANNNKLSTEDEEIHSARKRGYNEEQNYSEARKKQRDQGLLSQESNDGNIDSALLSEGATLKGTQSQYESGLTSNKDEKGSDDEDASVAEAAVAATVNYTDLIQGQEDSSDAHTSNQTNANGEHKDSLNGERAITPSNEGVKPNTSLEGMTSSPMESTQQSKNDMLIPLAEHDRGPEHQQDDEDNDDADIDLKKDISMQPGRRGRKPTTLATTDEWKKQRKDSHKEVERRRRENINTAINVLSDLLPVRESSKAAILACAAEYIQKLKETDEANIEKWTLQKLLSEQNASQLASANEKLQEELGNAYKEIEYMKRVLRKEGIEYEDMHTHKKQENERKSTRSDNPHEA
Technique: protein-binding microarray
Molecule type: double-stranded DNA, one strand shown
Medium: in vitro
Concentration: 0.8 µM
Notes: whole 60-bp probe, no competitor
Direction: higher = stronger binding
Shared flanks, not repeated: … GTCTTGATTCGCTTGACGCTGCTG
Sequence | fluorescence intensity
CTAAACGCCAACTCTCACATGGTAGCAGGCGGGTTC | 625 a.u.
GAAGACATTACTATGATCATGATTTACGATGACTAG | 551 a.u.
CTAAAAATTTTTGTTCACGTTGAACAGAGGGTATTC | 704 a.u.
CTAGGTGTTTTTAATCAGCTGTAATAGAAGTACTTC | 560 a.u.
GAATTTCCCTTCCCTCGCGTGCCATTCGGCGATTAG | 504 a.u.
GAATCCTGCGACCGTGATGATACCGAAAGTATGTAG | 592 a.u.
CTATTTTGTGACGGTGACGTACGATCTCTATACTTC | 530 a.u.
CCTAACTACTATAATTCAGTTGAATAGCTTCGTACA | 485 a.u.
CTATAAAGCCTAAAGCGCGTGGTTCTTACGAAATTC | 538 a.u.
CTAATCTTGACTAACAACGTGTACAACTCTTTTTTC | 590 a.u.
GAATATTTTTATCATCACCATCATTTTGAAATCTAG | 547 a.u.
CCTAACTACTATAGCCACGACCGATAGCTTCGTACA | 519 a.u.
TGTACGAAGCTATCAAACATGACTATAGTAGTTAGG | 529 a.u.
CCTAACTACTATACTCGTGTGCGATAGCTTCGTACA | 593 a.u.
GAATGTATATAACCGGGCATCACGAAGAGATCATAG | 512 a.u.
GAAGTTTAGGAGTTACGCGTGCTACATTACTGTTAG | 560 a.u.
CTAGTATTATATAGAAACGTGTTAGTAGGCTCTTTC | 595 a.u.
CTAACACTAATGTGTCACCAAACAAACAAACGATTC | 564 a.u.
CTACGGTCGCCATATCATGAGATTACTTGAAGCTTC | 516 a.u.
CTACTGCTAGCAATGAACGTGCTATCTTTTTATTTC | 696 a.u.
CTAGTACTTTTGAATCATCAGACAAGAACAATGTTC | 500 a.u.

Series 5
Target: RING finger protein unkempt homolog, zinc fingers 1-6, SBP tag (UNK, Homo sapiens, UniProt Q9C0B0, residues 30-357)
Sequence of UniProt Q9C0B0 (30-357, looked up): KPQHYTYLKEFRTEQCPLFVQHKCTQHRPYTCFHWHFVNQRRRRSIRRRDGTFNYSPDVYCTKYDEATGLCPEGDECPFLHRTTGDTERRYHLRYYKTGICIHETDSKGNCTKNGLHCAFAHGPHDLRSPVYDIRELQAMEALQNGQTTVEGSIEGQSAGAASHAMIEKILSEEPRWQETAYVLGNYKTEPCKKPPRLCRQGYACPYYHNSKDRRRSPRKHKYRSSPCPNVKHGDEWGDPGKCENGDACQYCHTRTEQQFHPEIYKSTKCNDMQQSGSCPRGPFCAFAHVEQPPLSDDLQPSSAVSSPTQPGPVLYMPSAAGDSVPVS
Technique: RNA Bind-n-Seq
Molecule type: RNA
Medium: in vitro
Concentration: 100 nM
Notes: RNA with constant flanks, vertebrate orthologous sites, ends assumed
Reference: input RNA pool
Direction: higher = stronger binding
Shared flanks, not repeated: GGGAGUUCUACAGUCCGACGAUC … CAACAGAGGAUUGAGCAUCA
Sequence | bound/input enrichment [ratio]
AACUGACUGGUUUAAGAUUAUUUAGAUAAGAAGUUAUUACUGUAUGUGUGUUUUCAAAAUUGACUAUUUUUUUAAUCCAUCUUGCAAAUAUCGGCUGUGUGUGGCGGUUUCUUAACAUGU | 0.812
UAAUGCAAUGGUUGAAGGCUCUGAGCUCAAAAAGGUUCGGUCCAAUUCUAGAGUAUAUCACCGAUACUUUCUUUUAGAUGCAGAUAUGCAGUCCCUGCAUUGGGAACCUUCAAAGAAGGA | 0.609
AUUCAUCUCUCACUUAGUGUCCAAAAUUACUGAGGGUUUGAAACAUUCAAUAGUUUCACAUAGAGCUACACUGGCAGGUGAUUUAAUACUAUCCUAGUGAGAUCAGAUACCAUUGUAGUA | 0.975
GUUUUUAGAUUUCAUCUCUUUAAUUAGUAUGAGGGUUUGAAAUACUGAAUAGUUCCACCACAAAUUAACACUGGCAGGUGUUCCAAGAUAGCACUAUAGUCAUUUCAAAUACCCUUAUGG | 1.42
AGAAAAUUUUAAUCAAGAAUCUGAAGGCAGAAAUACAGGACCAUGGUUAUCUUCCUCACUUAGAAAUAGAUGCACACCUUUGUUCUCUAGAAGGAGGCGAGAGGGAAGAGAUGAAUCUUC | 0.987
AAGCCCUGUGAAGGUCUACUGACCGCUCACUAUUGUCUGGUAUCUGUAAACACUUCUGUUUAGUCCUUUCAUUGUAUAAUUGAUGUUCCUUAAAACUGUCAGUGUAAAACAGGGCUUAUG | 0.777
GUUGGGUCAUGACCCUUAUAGGUUAGGUCAUGAUGCUUACAGGUUAGGACAGGACCCCUAUAGAUUAGGCCAUGAUCCCUACAGACUAACUCCUGAUCCCUAUAGGAUGUCACCUAGACC | 0.91
GUGUUGGUGCAGAGUGUCCUGUACCAGUGCUCAUCAUCCCCUCUUCAUACCAACUGUCCCUAGUUAUAGGAAUUUAAUAUUUUUAAAAGUUUUACAUUGCUGUAUAUUCAAAGAUUUGUU | 1.08
ACAAGCCACAUAGGAUAUUUGUGCUAUUUAAAAGUGAGCUUUGCUUUUUCUGCAUUCAAAGAGAAUCCUUUUGUAUCAGGGGUGCUUUAAAAGUGUGAAGGUGUGCUCUGCUAAUCCCAG | 0.532
CUAGUCAGGGAUAACCGUUCACUUAUUUUAAUAAAGAAAUGAGAUGCUGAAAACCACAUUAGGACUUAGCUGGAGAAUUUAAAUAAGCUUCUUUUAGGUGAUUCUAAGAUUCAGAAUCAC | 0.414
UUUUGGUAUGAAGCUGCAUACCAAUACUCAUCCUCUUUUUUUCAUUAUACCAACUAUCCCUAGAAAUAGGAGUUUAAUAUUUUUCAAAAUUUUACAUUGCUGUAUAGUCAAAAUUUUAAA | 0.712

Some of these lines once more (series 4):
Sequence | fluorescence intensity
CTAGTACTTTTGAATCATCAGACAAGAACAATGTTC | 500 a.u.
CTAGGTGTTTTTAATCAGCTGTAATAGAAGTACTTC | 560 a.u.
CTATAAAGCCTAAAGCGCGTGGTTCTTACGAAATTC | 538 a.u.
GAATGTATATAACCGGGCATCACGAAGAGATCATAG | 512 a.u.
TGTACGAAGCTATCAAACATGACTATAGTAGTTAGG | 529 a.u.
CTAAACGCCAACTCTCACATGGTAGCAGGCGGGTTC | 625 a.u.
CCTAACTACTATACTCGTGTGCGATAGCTTCGTACA | 593 a.u.
GAAGTTTAGGAGTTACGCGTGCTACATTACTGTTAG | 560 a.u.
GAATATTTTTATCATCACCATCATTTTGAAATCTAG | 547 a.u.
CCTAACTACTATAATTCAGTTGAATAGCTTCGTACA | 485 a.u.
GAAGACATTACTATGATCATGATTTACGATGACTAG | 551 a.u.
CTAGTATTATATAGAAACGTGTTAGTAGGCTCTTTC | 595 a.u.
